Measured values of several laboratories.
Each line is one published result; not all experiments were run side by side. Numbers after ± are the reported error.

SMILES | target | test | test system | setting | scale | measurement | result
Cc1sc2ncn(CC(=O)N3CCCC3)c(=O)c2c1-c1cccc(Br)c1 | NMDA receptor, mouse | single-channel current, outside-out patch | cortical neurons | concentration not given, holding -80 mV, with: Ca2+ 1.25 mM |  | unitary current amplitude 2 | -2.58 ± 0.22 pA
O=C(/C=C/c1ccccc1)c1ccccc1 | HDAC class I, II and IV (human) | enzyme activity, inhibitor, fluorometric | K562 cell extract | 1 h, 37 °C |  | IC50 | > 1000 µM
CCCn1c(=O)c2[nH]c(-c3ccc(N(C)C(=O)c4ccc(C(F)(F)F)nc4)nc3)nc2n(CCC)c1=O | adenosine receptor, mouse | antagonist | mouse aortic endothelial cells | 1 µM, with: NECA |  | cAMP level | inhibited
COc1ccc(/C=C/C(=O)c2ccc(OC)cc2)cc1 | HDAC class I, II and IV (human) | enzyme activity, inhibitor, fluorometric | K562 cell extract | 1 h, 37 °C |  | IC50 | > 1000 µM
CCCCCCCCCCCCCCCC(=O)N[C@@H](CCCCN)C(=O)N[C@@H](CCCCN)C(=O)N[C@@H](CO)C(=O)N[C@@H](CCCNC(=N)N)C(=O)N[C@@H](C)C(=O)N[C@@H](CC(C)C)C(=O)N[C@@H](Cc1ccccc1)C(N)=O | baboon PAR1 | ex vivo platelet aggregation | baboon | intravenous infusion, 1 mg/kg, 1 to 2 h, infusion 30 min, with: SFLLRN 5 µM |  | inhibition | 5 to 10%
CC[C@H](C)[C@@H]1NC(=O)[C@H](Cc2ccc(O)cc2)NC(=O)[C@@H](N)CSSC[C@@H](C(=O)N2CCC[C@H]2C(=O)N2CCC[C@H]2C(=O)NCC(N)=O)NC(=O)[C@H](CC(N)=O)NC(=O)[C@H](CCC(N)=O)NC1=O | vasopressin V1a receptor, Macaca mulatta | calcium mobilization, agonist, FLIPR Fluo-3 | CHO transfected with receptor |  |  | EC50 | 0.0194 µM
Cn1ccc2c(N3CCN(CCCCOc4ccc5c(c4)NC(=O)CC5)CC3)cccc21 | 5-HT1A receptor | arrestin over Gi/o signalling, GloSensor and Tango, operational model | cells |  | reference: serotonin | bias factor | 60
CC1=C(/C=C/C(C)=C/C=C/C(C)=C/C=O)C(C)(C)CCC1 | thyroid hormone receptor, rat | reporter gene, agonist, luciferase reporter, qHTS | GH3.TRE-Luc |  |  | EC50 | < 10 µM
O=C([O-])CN(CCN(CC(=O)[O-])CC(=O)NCCc1c[nH]c2ccc(O)cc12)CCN(CC(=O)[O-])CC(=O)NCCc1c[nH]c2ccc(O)cc12.[Gd+3] | myeloperoxidase mouse | MR contrast, MR imaging | wild-type mouse, CFA inflammation | 0.3 mmol/kg, 60 min | reference: first post-contrast scan | activation ratio increase | ~2 fold
COc1ccc(NC(=O)[C@H](CCCCN)NC(=O)c2cc(NC(=O)[C@H](CCCCN)NC(=O)c3cc(NC(=O)[C@H](CCCCN)NC(=O)c4cc(NC(=O)[C@@H](N)CCCCN)ccc4OC)ccc3OC)ccc2OC)cc1C(N)=O | antithrombin III-factor Xa | fondaparinux reversal, amidolytic |  | pH 8.4, with: fondaparinux 0.02 µg/mL |  | EC50 | 3.6 µM
CC(C)C[C@H](NC(=O)[C@H](CCC(N)=O)NC(=O)[C@H](CCCNC(=N)N)NC(=O)[C@H](CCCNC(=N)N)NC(=O)[C@@H](NC(=O)[C@H](CCCNC(=N)N)NC(=O)[C@@H](NC(=O)[C@H](CO)NC(=O)[C@@H](N)CS)[C@@H](C)O)C(C)C)C(N)=O | human Nox1/p47phox/p67phox | cytochrome c reduction |  | 1 µM, with: LiDS |  | superoxide production | no effect
COc1ccc(NC(=O)[C@H](CCCCN)NC(=O)c2cc(NC(=O)[C@H](CCCCN)NC(=O)c3cc(NC(=O)[C@H](CCCCN)NC(=O)c4cc(NC(C)=O)ccc4OC)ccc3OC)ccc2OC)cc1C(N)=O | antithrombin III-factor Xa | fondaparinux reversal, amidolytic |  | pH 8.4, with: fondaparinux 0.02 µg/mL |  | EC50 | 2.3 µM
O=C(CCc1ccc(O)cc1)c1c(O)cc(O)cc1OC1OC(CO)C(O)C(O)C1O (stereo not shown) | HDAC class I, II and IV (human) | enzyme activity, inhibitor, fluorometric | K562 cell extract | 1 h, 37 °C |  | IC50 | > 1000 µM
COc1cc(C(=O)c2[nH]c(N)nc2-c2cccs2)cc(OC)c1OC | tubulin goat | taxol-induced tubulin polymerization |  | 90 µM, with: taxol 10 µM |  | inhibition | 55 ± 8%
O=C(/C=C/c1ccccc1)c1ccc(O)cc1 | HDAC class I, II and IV (human) | enzyme activity, inhibitor, fluorometric | K562 cell extract | 1 h, 37 °C |  | IC50 | > 1000 µM
Clc1ccc(NN=C(c2ccccc2)c2ccccn2)nc1 | histone deacetylase | enzyme activity | cell lysate | concentration not given |  | inhibition | no inhibition
COc1ccc(/C=C/C(=O)c2ccccc2)cc1OC | HDAC class I, II and IV (human) | enzyme activity, inhibitor, fluorometric | K562 cell extract | 1 h, 37 °C |  | IC50 | > 1000 µM
CCCCC/C=C/C(=O)CCc1ccc(O)c(OC)c1 | mAb 5-3H1 | antibody binding, indirect competitive ELISA |  | with: coating antigen 2-OVA |  | IC50 | > 4 µg/mL
CC(C)(C)C(=O)Nc1ccc2[nH]c(CN3CCC(N(CCCN4CCOCC4)CC4OC(n5cnc6c(N)ncnc65)C(O)C4O)CC3)nc2c1 (stereo not shown) | human DOT1L R231Q | inhibitor, western blot, item: H3K79me2 over histone H3 | H460 DOT1L R231Q | concentration not given | reference: cpd over SGC0946 | H3K79me2 level ratio | 0.536
CC(=O)N[C@@H](CCCCNC(=O)CCCC[C@@H]1SC[C@@H]2NC(=O)N[C@@H]21)C(=O)N[C@@H](CC(=O)O)C(=O)N[C@@H](CC(C)C)C(=O)N[C@@H](Cc1c[nH]c2ccccc12)C(=O)N[C@@H](CCCCN)C(=O)N[C@@H](CC(C)C)C(N)=O | anti-p53 antibody | binding, AFM force spectroscopy |  | biotin-neutravidin immobilization on gold |  | adhesion pull-off force | 1.7e-10 ± 9e-12 N
Cn1cc(-c2cnc3ccc(NC(=O)Nc4ccc5sccc5c4)cc3n2)cn1 | IKKβ | NF-κB reporter gene, dual luciferase |  | concentration not given, with: TNF-α |  | inhibition | inactive
COc1cc(CCC(C)=O)ccc1O | mouse mAb 1-F12 | antibody binding, indirect competitive ELISA |  | with: coating antigen hapten 5-OVA |  | IC50 | 0.283 µg/mL
Cn1cncn1.[Ru+2].c1cc(-c2ccc3ccccc3n2)nc(-c2ccc3ccccc3n2)c1.c1ccc2cc3nc4c5cccnc5c5ncccc5c4nc3cc2c1 | cysteine cathepsins (mouse) | enzyme activity | 4T1, cell lysate | 1 µM, 4 h, dark, then 1 h, with: Z-Phe-Arg-AMC | reference: vehicle | remaining activity | 94 ± 8%
COc1ccc(NC(=O)[C@H](CCCCN)NC(=O)c2cc(NC(=O)[C@H](CCCCN)NC(=O)c3cc(NC(=O)[C@H](CCCCN)NC(=O)c4cc(NC(=O)[C@@H](N)CCCCN)ccc4OC)ccc3OC)ccc2OC)cc1C(=O)NCCC(=O)O | antithrombin III-factor Xa | fondaparinux reversal, amidolytic |  | pH 8.4, with: fondaparinux 0.02 µg/mL |  | EC50 | 6 µM
Cc1ccc(NS(=O)(=O)c2cccc(C#N)c2)c2[nH]cc(C#N)c12 | human DCAF15-DDB1 | TR-FRET |  | concentration not given, outcome no effect |  | effect of DDA1 on binding | no effect

For quick reference, copied from above:
SMILES | target | test | test system | setting | scale | measurement | result
CCCn1c(=O)c2[nH]c(-c3ccc(N(C)C(=O)c4ccc(C(F)(F)F)nc4)nc3)nc2n(CCC)c1=O | adenosine receptor, mouse | antagonist | mouse aortic endothelial cells | 1 µM, with: NECA |  | cAMP level | inhibited
O=C(/C=C/c1ccccc1)c1ccccc1 | HDAC class I, II and IV (human) | enzyme activity, inhibitor, fluorometric | K562 cell extract | 1 h, 37 °C |  | IC50 | > 1000 µM
COc1ccc(NC(=O)[C@H](CCCCN)NC(=O)c2cc(NC(=O)[C@H](CCCCN)NC(=O)c3cc(NC(=O)[C@H](CCCCN)NC(=O)c4cc(NC(C)=O)ccc4OC)ccc3OC)ccc2OC)cc1C(N)=O | antithrombin III-factor Xa | fondaparinux reversal, amidolytic |  | pH 8.4, with: fondaparinux 0.02 µg/mL |  | EC50 | 2.3 µM
